{"data": "Assay results gathered from unrelated publications", "note": "Every numbered part comes from another study and shows a few of its results, in no order."}
{"data": "Sample 1", "target": "Ras GTPase-activating protein-binding protein 1, C-terminal RGG region (G3BP1, Homo sapiens, UniProt Q13283)", "technique": "RNA Bind-n-Seq", "molecule type": "RNA", "medium": "in vitro", "concentration": "1 µM", "notes": "whole 134-nt RNA, ends assumed", "added": "150 mM KCl", "baseline": "input library", "direction": "higher = stronger binding", "constant ends, left off below": "GGGAGUUCUACAGUCCGACGAUC … UGGAAUUCUCGGGUGUCAAGG", "UniProt Q13283, sequence (whole entry, looked up)": "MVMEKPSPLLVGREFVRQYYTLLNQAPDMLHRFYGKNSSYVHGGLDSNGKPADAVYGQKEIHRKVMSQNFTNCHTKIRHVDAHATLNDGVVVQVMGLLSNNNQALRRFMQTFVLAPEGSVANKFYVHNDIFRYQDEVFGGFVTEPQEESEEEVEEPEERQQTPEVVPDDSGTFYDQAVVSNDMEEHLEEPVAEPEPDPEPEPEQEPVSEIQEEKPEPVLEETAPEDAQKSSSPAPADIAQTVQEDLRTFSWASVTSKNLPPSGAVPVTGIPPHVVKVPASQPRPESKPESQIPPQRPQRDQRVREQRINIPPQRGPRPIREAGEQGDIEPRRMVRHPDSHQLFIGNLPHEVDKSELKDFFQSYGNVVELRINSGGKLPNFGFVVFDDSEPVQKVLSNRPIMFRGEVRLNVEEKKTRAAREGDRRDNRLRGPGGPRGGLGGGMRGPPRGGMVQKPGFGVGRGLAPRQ"}
{"Strand": "UGGGAGGUGGAUUUUGUUUAUUUUUUUAGCUCAUUUCCAGGGGUGGGAAUUUUCUUUUAAUAUGUGUCAUGAAUAAAGUUGUUUUUGAAA", "log2 enrichment": 3.35}
{"Strand": "UGUGACAGGAGAGCGCUUGAAGAGCAAUGUGACGAGGACCAUCAGACACCGAGGGAUGGAGAGACAUCCCACAGGGCCCAGAUUCAGCAG", "log2 enrichment": -0.304}
{"Strand": "ACCAUGCAGGUGGGCAUCUUUGGGAAGUGGGGCAAGGGGGGGAUAGGGAGGGGGGUAACACUUUGGGAACAGGUGGUCCCAGGCCGUUUC", "log2 enrichment": 1.61}
{"Strand": "CACAGACAACACGCACCCACACAGACACAGAGGGCAGGGGUUGGGAUGGGGACAGGGUGCACAGCAGGGCGGGGUAGGACCCCAGCCCCU", "log2 enrichment": -0.0209}
{"Strand": "CUCAAGUCCUGUGCUACACAUCGUAUGUACCGAAUCGGUUUUUGGUUUGGAGGAAAGUAUUAUGUUACGCCGUUCGGAUCUGCACUUCCA", "log2 enrichment": -1.23}
{"data": "Sample 2", "target": "Histone acetyltransferase KAT6A, both winged helices, GST fusion (KAT6A, Homo sapiens, UniProt Q92794, residues 1-181)", "technique": "protein binding microarray", "molecule type": "double-stranded DNA, one strand shown", "medium": "in vitro", "concentration": "not given", "notes": "8-mer, flanks averaged, mean of 2 arrays, mostly near background", "baseline": "not given", "direction": "higher = stronger binding", "Target sequence (chain)": "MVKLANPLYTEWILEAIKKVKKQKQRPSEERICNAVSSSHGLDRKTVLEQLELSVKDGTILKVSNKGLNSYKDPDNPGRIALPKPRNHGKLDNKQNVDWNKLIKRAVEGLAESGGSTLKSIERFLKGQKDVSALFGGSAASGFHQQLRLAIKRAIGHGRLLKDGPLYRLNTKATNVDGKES"}
{"Strand": "ACTAGTTG", "E-score": -0.244}
{"Strand": "ACTACTGG", "E-score": -0.237}
{"Strand": "GTGCCCTA", "E-score": -0.0987}
{"Strand": "ACGGACCA", "E-score": 0.217}
{"Strand": "GGGCGTCA", "E-score": 0.0836}
{"Strand": "ACGCACGT", "E-score": 0.0879}
{"Strand": "TCGACTAA", "E-score": -0.112}
{"data": "Sample 3", "target": "RNA binding protein fox-1 homolog 2, RRM domain, GST-SBP tag (RBFOX2, Homo sapiens, UniProt O43251-10, residues 100-194)", "technique": "RNA Bind-n-Seq", "molecule type": "RNA", "medium": "in vitro", "concentration": "365 nM", "notes": "natural RNA segment, single round, ends assumed", "baseline": "no-protein control", "direction": "higher = stronger binding", "constant ends, left off below": "GGGAGUUCUACAGUCCGACGAUC … UGGAAUUCUCGGGUGCCAA", "Target sequence (chain)": "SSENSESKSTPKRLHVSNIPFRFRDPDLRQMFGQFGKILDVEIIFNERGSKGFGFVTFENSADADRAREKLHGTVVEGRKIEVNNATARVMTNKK"}
{"Strand": "GGAUAAAGGGCAGAUGUCAGCAAUACUAAGGGCUUCCUCAUGGGAGGGCAUGAGGCUCCACUCAUUGUCUUGUGACUUCCAUCCCUGCUGAAUGGGGCUGCAAGGCCAAG", "RBNS enrichment (R)": 0.531}
{"Strand": "GAGGCUGUGGAACAAAACACGCUGCAGGAGUUCCUGAAGCUGGCUUGAGUCAAGCCUGUCCAGAGUUCCCCUGCUGGACUCCAUCACCACACUCCCCCCAGCCUUCACCU", "RBNS enrichment (R)": 0.464}
{"Strand": "UUGGUUGGGAGGGAAAAGGACAUUAAUUUGAAGUUUCAUGUUAUUCAUGCCAGGAUUGUUUGAUAGAGCAUGAAGGUUUUGUUUACCCAUAAAAGUAUUAGAGGCAGCGU", "RBNS enrichment (R)": 1.5}
{"Strand": "GUCACUGACUCUGUUCACACAACUGUAUGUCUUACUGAAGGUCCCUGAAAGAUGUUUGAGGCUUGGGAUUCCAAACUUGGUUUAUUAAACAUAUAGUCACCAUCUUCCUA", "RBNS enrichment (R)": 0.487}
{"Strand": "AGAACAAGUUGCUUAUAAUUGAGAGUGAGAGCAUGCCUUAAAUGUCAUGAUGGUAUGUGAAUAUGUGUGUAUGUUGCAAACAGGAAAUGCACUUGUAAACAUACGACAUG", "RBNS enrichment (R)": 7.52}
{"Strand": "CCCAGUGAAACUCUGAAAUUAUCUGAAAAAUGUAUAUAGUAGCUAAAGGGGGAAUCUUAUAAAAUCCUGUGCAAUAGACAUACAUAGCUGUACUCAGAAGGGCUGUCUUC", "RBNS enrichment (R)": 0.334}
{"Strand": "CCCAGAGAGGGCUCAGAAACGGCCCAGGAAGGCCCAGGGCCUUCCUGGCGUGAUUGACGAUCUGAGUUUUAUCUCUCACACCUACAAGGUGGAAGAGGAGAACUGGCUCC", "RBNS enrichment (R)": 0.2}
{"Strand": "AUAGUAAUACACAUCUGCCUUUGUCUCUUCACUCAGAGUCAACUGAAAAAUUGCAGGCCAAAACCUUGGAGAACUUUCCAAGUCUGUGACUCCCAGAUUACCCGUGGGCG", "RBNS enrichment (R)": 0.383}
{"Strand": "AGGCCUCCAAGGCAGAAGCUAUUGGGAGCCUCCCUGAUGCUCCUCAGCCUCUUAGAGAGGAGCCCUUGUAUGGCCAGGUCACACGGCAUCCCAGUGGCCGGGGAGUCACC", "RBNS enrichment (R)": 0.286}
{"data": "Single results of other studies"}
{"Substance": "PhoQ, residues 284 288 289 292 302 303 TLSLKA", "target": "PhoP, residues 12 14 15 18 19 LQHIR (Escherichia coli, UniProt P23836)", "assay": "Sort-seq, measured: YFP reporter", "test system": "E. coli", "conditions": "PhoQ-PhoP variant library, added: 10 µM Mg2+", "how to read": "baseline: high Mg2+ state, higher = stronger signaling", "quantity": "fold induction", "result": 2.69}
